Earlier results that unrelated publications cite.
Lines come from different studies, so protocols differ. ± gives the spread as reported.

Substance	target	assay	test system	setting	how to read	quantity	value
O=c1c(I)ccc2n1C[C@@H]1CNC[C@H]2C1	α4β2 nAChR high-sensitivity form	agonist	Xenopus oocytes			EC50	0.0008 µM
CC[C@H](C)[C@H](NC(=O)[C@H](C)NC(=O)[C@H](CC(N)=O)NC(=O)[C@H](CCCCN)NC(=O)[C@H](Cc1ccccc1)NC(=O)[C@H](CC(C)C)NC(=O)[C@@H](NC(=O)[C@@H](NC(=O)[C@H](CC(C)C)NC(=O)[C@@H]1CCCN1C(=O)[C@@H](NC(=O)[C@H](CCC(N)=O)NC(=O)[C@H](CO)NC(=O)[C@H](CCCCN)NC(=O)[C@H](CCC(=O)O)NC(=O)[C@H](CO)NC(=O)[C@@H](NC(=O)[C@H](CCSC)NC(=O)[C@H](Cc1ccccc1)NC(=O)CNC(=O)CNC(=O)[C@@H](N)Cc1ccc(O)cc1)[C@@H](C)O)[C@@H](C)O)C(C)C)[C@@H](C)O)C(=O)N[C@H](C(=O)N[C@@H](CCCCN)C(=O)N[C@@H](CC(N)=O)C(=O)N[C@@H](C)C(=O)N[C@@H](Cc1ccc(O)cc1)C(=O)N[C@@H](CCCCN)C(=O)N[C@@H](CCCCN)C(=O)NCC(=O)N[C@@H](CCC(=O)O)C(=O)O)[C@@H](C)CC	mu opioid receptor	cAMP inhibition, agonist				EC50	0.0302 ± 0.011 µM
Ic1cncc(OC[C@@H]2CCN2)c1	GABA-A receptor (α4)3(β3)2	agonist		(α4)3(β3)2 form		EC50	~18 µM
CN(C)C(=N)N=C(N)N	dihydrofolate reductase (Escherichia coli)	competitive inhibitor				Ki	24000 µM
CN1Cc2ccccc2[C@@H]2c3cccc4[nH]cc(c34)C[C@H]21	dopamine D1 receptor (bovine)	agonist	retina	concentration not given		intrinsic activity	68%
CC[C@H](C)[C@H](NC(=O)[C@H](Cc1ccc(O)cc1)NC(=O)[C@@H](NC(=O)[C@@H]1CCCN1C(=O)[C@H](CCCNC(=N)N)NC(=O)[C@H](CC(N)=O)NC(=O)[C@H](CC(N)=O)NC(=O)[C@H](CCCN)N=C(N(C)C)N(C)C)C(C)C)C(=O)N1CCC[C@H]1C(=O)N[C@@H](CCCNC(=N)N)C(=O)N1CCC[C@H]1C(=O)N[C@@H](CCCNC(=N)N)C(=O)N1CCC[C@H]1C(=O)N1CCC[C@H]1C(=O)N[C@@H](Cc1c[nH]cn1)C(=O)N1CCC[C@H]1C(=O)N[C@@H](CCCNC(=N)N)C(=O)N[C@@H](CC(C)C)C(=O)O	Escherichia coli BL21(DE3)RIL ribosome	fluorescence polarization				Kd	0.56 ± 0.06 µM
C#CCN(C)CCCOc1ccc(Cl)cc1Cl.Cl	MAOA, rat	5-HT deamination, inhibitor	rat, brain, ex vivo	subcutaneous, 0.3 mg/kg		inhibition	~90%
NC(=O)[C@@H]1CC[C@@H]2CN1C(=O)N2OS(=O)(=O)O	PBP5/6	enzyme activity		highest concentration 50 µM		IC50	> 50 µM
OCc1ccc(-c2nn(Cc3ccccc3)c3ccccc23)o1	soluble guanylate cyclase, bovine	enzyme activity, activator		without NO or CO		EC50	~20 µM
C[C@]12CC[C@H]3[C@@H](CCC4=CC(=O)C=C[C@@]43O)[C@@H]1CCC2=O	oestrogen receptor alpha	binding, competition binding				EC50	> 10 µM
c1cncc(N2CCCNCC2)c1	human α4β2 nAChR, high-sensitivity	agonist	Xenopus oocytes			EC50	0.021 µM
c1cnc2cc3c(cc2n1)[C@@H]1CNC[C@H]3C1	α6β2*-nAChR, monkey	[3H]dopamine release, agonist	striatal synaptosomes			EC50	0.14 µM
CC(=O)N(O)CCC[C@@H]1NC(=O)CNC(=O)CNC(=O)CNC(=O)[C@H](CCCN(O)C(C)=O)NC(=O)[C@H](CCCN(O)C(C)=O)NC1=O.[Fe+3]	Escherichia coli ferric siderophore transporters	substrate				Km	~0.0001 µM
CCCCC/C=C\C/C=C\C/C=C\C/C=C\CCCC(=O)NC1CC1	cannabinoid receptor 1 (human, recombinant)	cAMP production inhibition, agonist		added: forskolin		EC50	0.002 µM
Cc1c(COC(=O)[C@@H]2[C@H](/C=C(\Cl)C(F)(F)F)C2(C)C)cccc1-c1ccccc1 (racemic)	human FXR alpha	antagonist, Tox21 qHTS or literature		concentration not given		activity call	active
O=C(N[C@H]1COC(=O)[C@@H](NC(=O)c2cccc(O)c2[O-])COC(=O)[C@@H](NC(=O)c2cccc(O)c2[O-])COC1=O)c1cccc(O)c1[O-].[Fe+3]	Escherichia coli ferric siderophore transporters					Kd	~0.0001 µM
5′-methylthioadenosine	Staphylococcus aureus MTAN	substrate		second active site		Km	0.9 µM
COc1ccc2c3c([nH]c2c1)[C@H](CC(C)C)N1C(=O)[C@H](CCC(=O)OC(C)(C)C)NC(=O)[C@@H]1C3	BCRP (human)	rosuvastatin efflux, inhibitor	EpiIntestinal tissue model	3 µM, added: rosuvastatin	baseline: no inhibitor	efflux reduction	32.2 fold
